Assay results from different studies.
Protocols differ between the studies behind these lines. Numbers after ± are the reported error.

SMILES = O=C(O)c1ccc(-c2nc(-c3ccccc3Cl)c3sccn23)cc1; cell line = K562; assay = CellROX Red; setting = 0.1 mM, 48 h; quantity = ROS level; result = 58900 RFU
SMILES = COc1ccccc1-c1ccncc1C(=O)Nc1nnc(OCc2ccc(Cl)cc2)s1; cell line = RPE-1 BRCA1 WT parental; setting = 8 µM, run 1; how to read = relative to: untreated; quantity = colony survival; result = 75%
SMILES = CC[C@H](C)[C@H](NC(=O)[C@H](C)NC(=O)CNC(=O)[C@H](Cc1ccccc1)NC(=O)[C@H](CC(N)=O)NC(=O)[C@H](CC(N)=O)NC(=O)[C@H](CO)NC(=O)[C@H](CO)NC(=O)[C@H](Cc1c[nH]cn1)NC(=O)[C@@H](NC(=O)[C@H](CC(C)C)NC(=O)[C@H](Cc1ccccc1)NC(=O)[C@H](CC(N)=O)NC(=O)[C@H](C)NC(=O)[C@H](CC(C)C)NC(=O)[C@H](CCCNC(=N)N)NC(=O)[C@H](CCC(N)=O)NC(=O)[C@@H](NC(=O)[C@H](C)NC(=O)[C@@H]1CSSC[C@H](NC(=O)[C@@H](N)CCCCN)C(=O)N[C@@H](CC(N)=O)C(=O)N[C@@H]([C@@H](C)O)C(=O)N[C@@H](C)C(=O)N[C@@H]([C@@H](C)O)C(=O)N1)[C@@H](C)O)C(C)C)C(=O)N[C@@H](CC(C)C)C(=O)N[C@@H](CO)C(=O)N[C@@H](CO)C(=O)N[C@H](C(=O)N[C@@H](CC(N)=O)C(=O)N[C@H](C(=O)NCC(=O)N[C@@H](CO)C(=O)N[C@@H](CC(N)=O)C(=O)N[C@H](C(=O)N[C@@H](Cc1ccc(O)cc1)C(N)=O)[C@@H](C)O)C(C)C)[C@@H](C)O; cell line = RIN-m5F; assay = ELISA; setting = 24 h, pre-aggregated; how to read = relative to: fresh amylin; quantity = nuclear content increase; result = 5 fold
SMILES = N=C(N)NCCC[C@H](NC(=O)CNC(=O)[C@@H](N)Cc1ccc(O)cc1)C(=O)N[C@@H](CCCCN)C(=O)N[C@@H](CCCCN)C(=O)N[C@@H](CCCNC(=N)N)C(=O)N[C@@H](CCCNC(=N)N)C(=O)N[C@@H](CCC(N)=O)C(=O)N[C@@H](CCCNC(=N)N)C(=O)N[C@@H](CCCNC(=N)N)C(=O)N[C@@H](CCCNC(=N)N)C(=O)N[C@@H](CS)C(N)=O; cell line = human red blood cells; setting = pH 5.5; how to read = relative to: Triton X-100; quantity = EC50; result = > 100 µM
SMILES = NC(=S)N/N=C/c1ccc(OCc2cccc(F)c2)cc1; cell line = IMR-32; assay = refers to: GPX3; setting = 400 µg/mL, 24 h; how to read = higher = more activity; quantity = glutathione peroxidase activity (OD450); result = 0.294 a.u.
SMILES = CC(=O)NCSC[C@H](NC(=O)[C@@H]1CCCN1C(=O)[C@H](C)NC(=O)[C@@H](NC(=O)CNC(=O)[C@@H](NC(=O)[C@H](Cc1c[nH]c2ccccc12)NC(=O)[C@H](C)NC(=O)CNC(=O)[C@H](CO)NC(=O)[C@H](C)NC(=O)[C@@H]1CCCN1C(=O)[C@H](Cc1c[nH]c2ccccc12)NC(=O)[C@H](C)NC(=O)[C@H](C)NC(=O)[C@@H](N)Cc1ccc(O)cc1)[C@@H](C)O)[C@@H](C)O)C(=O)N[C@@H](CO)C(=O)N[C@@H](C)C(=O)NCC(=O)N[C@H](C(=O)NCCOCCOCCOCCOCCOCCOCCOCCOCCOCCOCCOCCOCCC(=O)N[C@@H](CS)C(N)=O)[C@@H](C)O; cell line = HCC461; assay = phage binding; how to read = relative to: targeting over control phage; quantity = selectivity ratio; result = 3.4 ± 2
SMILES = CSCC[C@H](NC(=O)[C@H](CCC(=O)O)NC(=O)[C@H](CS)NC(=O)[C@H](Cc1ccccc1)NC(=O)[C@H](CC(N)=O)NC(=O)[C@@H]1CCCN1C(=O)[C@@H]1CCCN1C(=O)[C@H](CC(N)=O)NC(=O)[C@H](CC(C)C)NC(=O)[C@H](CCSC)NC(=O)[C@H](CC(C)C)NC(=O)[C@H](CS)NC(=O)[C@H](CCC(N)=O)NC(=O)CNC(=O)[C@H](Cc1ccc(O)cc1)NC(=O)[C@@H](NC(=O)[C@@H](NC(=O)[C@@H]1CCCN1C(=O)[C@@H](N)CS)C(C)C)[C@@H](C)O)C(=O)N[C@@H](CC(=O)O)C(=O)NCC(=O)N[C@@H](CCC(N)=O)C(=O)N[C@@H](CS)C(=O)N[C@@H](CCCCN)C(=O)O; cell line = RAW264.7; assay = Western blot; setting = concentration not given, 6 h pretreatment, with: LPS 30 min; quantity = p-NF-κB/NF-κB ratio; result = 0.25 ± 0.02
SMILES = CSCC[C@H](NC(=O)[C@@H](NC(=O)[C@H](CCC(N)=O)NC(=O)[C@H](CO)NC(=O)[C@@H](N)C(C)C)[C@@H](C)O)C(=O)N[C@@H](CCCNC(=N)N)C(=O)N[C@@H](CCC(N)=O)C(=O)N[C@H](C(=O)N[C@@H](C)C(=O)N[C@H](C(=O)N1CCC[C@H]1C(=O)N[C@@H](CC(C)C)C(=O)N[C@@H](CC(C)C)C(=O)N[C@@H](Cc1c[nH]c2ccccc12)C(=O)N[C@@H](Cc1ccccc1)C(=O)N[C@@H](Cc1c[nH]c2ccccc12)C(=O)N[C@H](C(=O)NCC(=O)N[C@@H](CO)C(=O)N[C@@H](CC(C)C)C(=O)NCCOCCOCCOCCOCCOCCOCCOCCOCCOCCOCCOCCOCCC(=O)N[C@@H](CS)C(N)=O)[C@@H](C)O)C(C)C)[C@@H](C)O; cell line = MCF7 breast cancer; assay = cell binding, phage binding, refers to: output/input phage; setting = 10 min, 37 °C; how to read = relative to: control phage; quantity = selectivity ratio; result = 1.5 ± 1.1
SMILES = CC(C)Cc1ccc(C(C)C(=O)[Se]CC(=O)Nc2cccc(C(F)(F)F)c2)cc1 (stereo not drawn); cell line = NCI60 leukaemia subpanel; assay = NCI60 five-dose screen; quantity = CC50; result = 10.4 µM
SMILES = CC1CCC2C(C)C(OC(=O)CCC(=O)N3CCC(Nc4ccc(S(=O)(=O)NC(=O)c5ccc(N6CCN(CC7=C(c8ccc(Cl)cc8)CC(C)(C)CC7)CC6)cc5Oc5cnc6[nH]ccc6c5)cc4[N+](=O)[O-])CC3)OC3OC4(C)CCC1C32OO4 (stereo not drawn); cell line = K562; assay = annexin V/PI flow cytometry, refers to: annexin V+/PI-; setting = 3.2 µM, 24 h; quantity = early apoptotic cells; result = 5.2%
SMILES = O=C(C[Se]C(=O)c1ccccc1Nc1cccc(C(F)(F)F)c1)Nc1cccc(C(F)(F)F)c1; cell line = NCI60 leukaemia subpanel; assay = NCI60 five-dose screen; quantity = CC50; result = 10 µM
SMILES = O=c1n(CCNCCOS(=O)(=O)c2ccccc2)c(=O)n(S(=O)(=O)c2ccccc2)c(=O)n1S(=O)(=O)c1ccccc1; cell line = A549; assay = cell growth or viability, MTT; setting = 100 µg/mL, 24 h; quantity = viability; result = 41.3%
SMILES = CC(C)(C)C(=O)OCOP(=O)(OCOC(=O)C(C)(C)C)C1CCCN(O)C1=O (stereo not drawn); cell line = T47D; quantity = TGI; result = 17.7 µM
SMILES = CC(C)C[C@H](NC(=O)[C@H](CC(=O)O)NC(=O)CNC(=O)[C@@H](N)CCCNC(=N)N)C(=O)N[C@@H](C)C(=O)N[C@H](C(=O)N[C@@H](CC(C)C)C(=O)N[C@@H](CCCNC(=N)N)C(=O)N[C@@H](CCC(N)=O)C(=O)N[C@@H](CC(C)C)C(=O)N[C@@H](C)C(=O)N[C@@H](CCC(N)=O)C(=O)N[C@@H](CCC(=O)O)C(=O)N[C@@H](CC(=O)O)C(=O)NCC(=O)N[C@H](C(=O)N[C@H](C(=O)NCC(=O)N[C@H](C(=O)N[C@@H](CCCNC(=N)N)C(=O)NCCOCCOCCOCCOCCOCCOCCOCCOCCOCCOCCOCCOCCC(=O)N[C@@H](CS)C(N)=O)C(C)C)C(C)C)C(C)C)[C@@H](C)O; cell line = H1299 lung large cell carcinoma; assay = cell binding, phage binding, refers to: output/input phage; setting = 10 min, 37 °C; how to read = relative to: control phage; quantity = selectivity ratio; result = 4.7 ± 0.23
SMILES = O=C(C[Se]C(=O)c1cc2ccccc2[nH]1)Nc1cccc(C(F)(F)F)c1; cell line = NCI60 melanoma subpanel; assay = cytotoxicity, inhibitor; setting = five-dose; quantity = CC50; result = 5.93 µM
SMILES = Cc1cc(Oc2nc(N3CC[C@@H](c4ccncc4)C3)ncc2F)[nH]n1; cell line = Caco-2; assay = cell proliferation; test system = colon cancer; quantity = IC50; result = 49 µM
SMILES = Cc1c(Cl)cccc1Nc1ccccc1C(=O)[Se]CC(=O)Nc1cccc(C(F)(F)F)c1; cell line = NCI60 melanoma subpanel; assay = cytotoxicity, inhibitor; setting = five-dose; quantity = CC50; result = 6.08 µM
SMILES = CC(C)CC(O)(CC(C)C)c1cn(C(=O)N2CCCC2)nn1; cell line = mouse T-cells; assay = N-terminal labelling enrichment, refers to: Scye1 N-terminal peptides; setting = 1 nM, 6 h, protein median; how to read = relative to: DMSO; quantity = SILAC ratio; result = 0.81
